# Experimental data collected from several papers.
# Numbered parts are unrelated; each lists some results of a single study.
# Chain of UniProt Q8TD19 (whole entry, looked up): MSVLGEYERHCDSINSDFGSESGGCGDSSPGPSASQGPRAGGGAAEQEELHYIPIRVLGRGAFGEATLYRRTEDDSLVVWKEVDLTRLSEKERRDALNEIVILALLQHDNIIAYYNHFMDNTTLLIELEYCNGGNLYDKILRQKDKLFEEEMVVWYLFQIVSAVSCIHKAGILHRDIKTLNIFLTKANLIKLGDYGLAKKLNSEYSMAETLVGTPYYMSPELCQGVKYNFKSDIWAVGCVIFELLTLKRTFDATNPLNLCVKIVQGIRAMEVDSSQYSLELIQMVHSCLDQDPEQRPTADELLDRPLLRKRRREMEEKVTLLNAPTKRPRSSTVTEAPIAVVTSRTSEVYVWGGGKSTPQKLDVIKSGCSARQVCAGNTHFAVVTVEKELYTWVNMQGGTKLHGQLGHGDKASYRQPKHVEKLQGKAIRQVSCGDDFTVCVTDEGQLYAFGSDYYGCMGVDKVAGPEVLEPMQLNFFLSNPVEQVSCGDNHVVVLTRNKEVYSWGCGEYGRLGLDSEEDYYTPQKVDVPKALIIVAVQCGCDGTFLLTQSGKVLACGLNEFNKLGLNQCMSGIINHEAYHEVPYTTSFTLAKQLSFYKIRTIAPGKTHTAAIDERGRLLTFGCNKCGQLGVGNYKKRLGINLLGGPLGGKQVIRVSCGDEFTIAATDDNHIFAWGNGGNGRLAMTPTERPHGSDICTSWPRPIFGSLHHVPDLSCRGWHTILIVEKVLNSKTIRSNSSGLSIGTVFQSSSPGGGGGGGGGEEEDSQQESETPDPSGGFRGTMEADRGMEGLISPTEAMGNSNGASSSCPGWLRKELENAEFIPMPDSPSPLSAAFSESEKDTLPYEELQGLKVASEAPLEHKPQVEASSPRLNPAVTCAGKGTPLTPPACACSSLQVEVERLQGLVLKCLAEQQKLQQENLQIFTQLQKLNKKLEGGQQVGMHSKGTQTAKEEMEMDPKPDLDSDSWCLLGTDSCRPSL
# Chain of UniProt P42336 (whole entry, unmodified, looked up): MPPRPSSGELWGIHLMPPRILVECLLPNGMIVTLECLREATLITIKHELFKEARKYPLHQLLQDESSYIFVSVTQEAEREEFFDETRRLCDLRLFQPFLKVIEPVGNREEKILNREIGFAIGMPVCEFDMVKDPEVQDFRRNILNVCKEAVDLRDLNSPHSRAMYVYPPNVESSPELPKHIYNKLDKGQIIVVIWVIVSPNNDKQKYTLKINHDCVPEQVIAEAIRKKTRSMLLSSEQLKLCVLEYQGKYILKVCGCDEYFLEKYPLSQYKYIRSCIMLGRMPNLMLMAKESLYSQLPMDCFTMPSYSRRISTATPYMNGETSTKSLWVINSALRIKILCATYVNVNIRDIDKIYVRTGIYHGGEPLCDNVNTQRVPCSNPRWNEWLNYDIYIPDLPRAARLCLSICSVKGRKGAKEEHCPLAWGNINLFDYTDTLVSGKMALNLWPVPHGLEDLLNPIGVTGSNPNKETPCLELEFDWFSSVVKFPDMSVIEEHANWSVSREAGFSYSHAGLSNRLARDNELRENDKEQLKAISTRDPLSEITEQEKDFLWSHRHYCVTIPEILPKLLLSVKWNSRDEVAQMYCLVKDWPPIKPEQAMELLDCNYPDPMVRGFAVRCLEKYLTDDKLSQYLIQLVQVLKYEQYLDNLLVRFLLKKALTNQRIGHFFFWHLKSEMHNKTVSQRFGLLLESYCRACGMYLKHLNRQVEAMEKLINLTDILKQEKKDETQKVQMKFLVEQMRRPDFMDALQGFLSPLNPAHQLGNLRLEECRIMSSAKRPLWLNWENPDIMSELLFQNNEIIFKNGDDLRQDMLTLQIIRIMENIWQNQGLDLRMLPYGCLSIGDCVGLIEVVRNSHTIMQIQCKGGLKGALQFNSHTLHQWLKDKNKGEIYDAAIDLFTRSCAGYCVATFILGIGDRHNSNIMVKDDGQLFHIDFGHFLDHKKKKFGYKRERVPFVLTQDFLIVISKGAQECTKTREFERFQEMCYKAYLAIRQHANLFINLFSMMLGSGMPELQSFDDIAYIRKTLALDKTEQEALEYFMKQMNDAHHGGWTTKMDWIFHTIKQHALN
# Chain of UniProt P37023 (whole entry, looked up): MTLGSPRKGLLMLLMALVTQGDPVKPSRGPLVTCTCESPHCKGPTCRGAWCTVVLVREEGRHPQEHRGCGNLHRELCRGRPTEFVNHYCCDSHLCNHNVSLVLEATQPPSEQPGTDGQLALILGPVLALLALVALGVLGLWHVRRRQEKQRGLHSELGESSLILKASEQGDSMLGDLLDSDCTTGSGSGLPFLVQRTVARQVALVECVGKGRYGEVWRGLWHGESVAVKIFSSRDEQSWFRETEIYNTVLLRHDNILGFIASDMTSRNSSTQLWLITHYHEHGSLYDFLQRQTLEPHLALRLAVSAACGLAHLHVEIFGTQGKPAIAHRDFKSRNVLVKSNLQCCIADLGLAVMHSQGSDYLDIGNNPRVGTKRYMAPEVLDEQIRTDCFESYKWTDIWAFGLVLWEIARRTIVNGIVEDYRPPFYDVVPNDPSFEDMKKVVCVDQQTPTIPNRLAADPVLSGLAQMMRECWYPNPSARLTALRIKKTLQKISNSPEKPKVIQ
# Chain of UniProt Q99640 (whole entry, looked up): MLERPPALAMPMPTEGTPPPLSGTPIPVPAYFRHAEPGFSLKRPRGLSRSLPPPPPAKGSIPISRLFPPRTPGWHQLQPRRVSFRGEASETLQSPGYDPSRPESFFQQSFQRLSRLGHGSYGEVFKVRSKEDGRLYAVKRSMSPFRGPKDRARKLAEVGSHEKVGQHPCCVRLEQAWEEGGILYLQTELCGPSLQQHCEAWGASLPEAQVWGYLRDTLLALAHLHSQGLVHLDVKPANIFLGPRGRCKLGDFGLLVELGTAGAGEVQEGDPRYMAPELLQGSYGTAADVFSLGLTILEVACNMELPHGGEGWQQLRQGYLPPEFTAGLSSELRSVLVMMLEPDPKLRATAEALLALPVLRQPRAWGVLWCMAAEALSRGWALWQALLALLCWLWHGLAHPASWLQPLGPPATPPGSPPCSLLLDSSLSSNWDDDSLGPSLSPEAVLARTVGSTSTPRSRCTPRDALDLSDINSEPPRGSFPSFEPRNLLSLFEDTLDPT
# Chain of UniProt Q13976 (whole entry, looked up): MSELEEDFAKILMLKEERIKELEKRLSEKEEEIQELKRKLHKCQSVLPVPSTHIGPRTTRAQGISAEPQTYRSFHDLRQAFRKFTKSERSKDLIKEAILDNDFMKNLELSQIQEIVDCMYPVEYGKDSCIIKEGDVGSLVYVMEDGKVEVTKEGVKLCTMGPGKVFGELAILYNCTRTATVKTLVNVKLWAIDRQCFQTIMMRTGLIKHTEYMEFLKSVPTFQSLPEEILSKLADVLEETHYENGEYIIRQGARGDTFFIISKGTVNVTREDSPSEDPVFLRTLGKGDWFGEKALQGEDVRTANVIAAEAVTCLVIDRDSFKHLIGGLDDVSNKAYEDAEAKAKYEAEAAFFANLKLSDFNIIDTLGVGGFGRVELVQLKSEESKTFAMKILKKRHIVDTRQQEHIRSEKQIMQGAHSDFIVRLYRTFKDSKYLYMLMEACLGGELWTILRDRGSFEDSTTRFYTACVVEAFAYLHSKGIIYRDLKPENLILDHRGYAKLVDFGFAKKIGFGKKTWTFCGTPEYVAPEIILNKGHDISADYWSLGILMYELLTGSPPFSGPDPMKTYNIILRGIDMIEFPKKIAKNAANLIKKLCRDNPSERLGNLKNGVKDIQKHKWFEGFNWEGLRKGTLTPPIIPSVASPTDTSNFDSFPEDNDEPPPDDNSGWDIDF
# Chain of UniProt Q12852 (whole entry, looked up): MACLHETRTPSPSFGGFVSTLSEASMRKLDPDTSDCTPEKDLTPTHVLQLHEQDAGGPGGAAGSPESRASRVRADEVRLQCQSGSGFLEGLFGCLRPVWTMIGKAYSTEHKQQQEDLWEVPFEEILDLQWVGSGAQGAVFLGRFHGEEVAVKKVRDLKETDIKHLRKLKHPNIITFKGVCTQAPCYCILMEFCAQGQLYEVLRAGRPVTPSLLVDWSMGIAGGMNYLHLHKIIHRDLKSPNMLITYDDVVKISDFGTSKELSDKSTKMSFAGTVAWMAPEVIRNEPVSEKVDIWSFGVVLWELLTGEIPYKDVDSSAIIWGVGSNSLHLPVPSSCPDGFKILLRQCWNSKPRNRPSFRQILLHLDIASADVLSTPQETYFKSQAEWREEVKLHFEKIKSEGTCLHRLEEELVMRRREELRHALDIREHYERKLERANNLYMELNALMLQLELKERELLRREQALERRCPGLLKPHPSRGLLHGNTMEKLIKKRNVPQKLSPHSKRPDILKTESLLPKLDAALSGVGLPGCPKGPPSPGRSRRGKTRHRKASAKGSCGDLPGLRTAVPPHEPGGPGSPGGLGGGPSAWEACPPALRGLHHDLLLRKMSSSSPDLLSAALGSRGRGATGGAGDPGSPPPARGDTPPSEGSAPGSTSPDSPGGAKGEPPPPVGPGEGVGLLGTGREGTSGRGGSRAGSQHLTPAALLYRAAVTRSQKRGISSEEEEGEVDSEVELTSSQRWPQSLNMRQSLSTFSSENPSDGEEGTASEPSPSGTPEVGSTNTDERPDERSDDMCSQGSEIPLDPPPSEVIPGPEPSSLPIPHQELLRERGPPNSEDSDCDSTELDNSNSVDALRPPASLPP

# Study 1
# SMILES: CS(=O)(=O)N1CCCC(NC(=O)[C@H](CCC2CCCCC2)NC(=O)c2ccc(CNc3ncnc4c3nnn4-c3ccccc3)cc2)C1 (stereo partly shown)
# Method: competition with immobilised ligand
target,read-out,tested at,remaining binding
"PKMYT1 (Homo sapiens, UniProt Q99640)",cell-free assay,0.1 µM,74%
"CSK (Homo sapiens, UniProt P41240)",cell-free assay,0.1 µM,91%
"MAP3K6 (Homo sapiens, UniProt O95382)",cell-free assay,0.1 µM,100%
"MAP3K12 (Homo sapiens, UniProt Q12852)",cell-free assay,0.1 µM,100%
"ABL2 (Homo sapiens, UniProt P42684)",cell-free assay,0.1 µM,100%
"PRKG1 (Homo sapiens, UniProt Q13976)",cell-free assay,0.1 µM,95%
"MAP3K4 (Homo sapiens, UniProt Q9Y6R4)",cell-free assay,0.1 µM,75%
"ACVRL1 (Homo sapiens, UniProt P37023)",binding,0.1 µM,97%
"RIOK1 (Homo sapiens, UniProt Q9BRS2)",cell-free assay,0.1 µM,54%
"NEK9 (Homo sapiens, UniProt Q8TD19)",cell-free assay,0.1 µM,100%
"PIK3CA (Homo sapiens, UniProt P42336, I800L)",binding,1 µM,44%
"EGFR (Homo sapiens, UniProt P00533, G719S)",cell-free assay,0.1 µM,72%
"PDGFRA (Homo sapiens, UniProt P16234)",cell-free assay,0.1 µM,91%

# Study 2
# Target: Ras GTPase-activating protein-binding protein 1, RRM domain (G3BP1, Homo sapiens, UniProt Q13283)
# Chain of UniProt Q13283 (whole entry, looked up): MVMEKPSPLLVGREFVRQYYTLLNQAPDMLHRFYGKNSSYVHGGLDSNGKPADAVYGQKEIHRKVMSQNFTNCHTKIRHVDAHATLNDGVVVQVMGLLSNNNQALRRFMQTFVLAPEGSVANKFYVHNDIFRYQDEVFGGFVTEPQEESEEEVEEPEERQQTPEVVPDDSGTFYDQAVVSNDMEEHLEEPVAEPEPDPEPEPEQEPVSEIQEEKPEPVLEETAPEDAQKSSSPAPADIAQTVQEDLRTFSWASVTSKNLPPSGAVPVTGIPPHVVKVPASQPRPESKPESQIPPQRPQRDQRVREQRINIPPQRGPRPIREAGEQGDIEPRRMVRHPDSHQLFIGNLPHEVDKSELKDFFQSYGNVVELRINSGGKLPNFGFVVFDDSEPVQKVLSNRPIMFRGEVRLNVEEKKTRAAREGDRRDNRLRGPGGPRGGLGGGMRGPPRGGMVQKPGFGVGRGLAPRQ
# Method: RNA Bind-n-Seq
# Form: RNA
# Matrix: in vitro
# Tested at: 1 µM
# Setting: whole 134-nt RNA, ends assumed
# Added: 150 mM KCl
# Baseline: input library
# Direction: higher = stronger binding
# All sequences stand within: GGGAGUUCUACAGUCCGACGAUC … UGGAAUUCUCGGGUGUCAAGG
Strand,log2 enrichment
GUCCUGUGCUACACAUCGUAUGUACCGAAUCGGGAAAAAAGGGAAAAAAGGAAAAAAGGAAAGUAUUAUGUUACGCCGUUCGGAUCUGCA,0.131
GCAGGAAGUAAAAACAAAUGGAAAUGCUUCGGAUAGUGGCAUGGGUGGGGGUUGCUAAGGAAAGGGUGGGAUGGGAGUGGGUAAAGAGUU,0.81
GUCCUGUGCUACACAUCGUAUGUACCGAAUCGGGUUUUUGGGUUUUUUUGGGUUUGGGAAAGUAUUAUGUUACGCCGUUCGGAUCUGCAC,-0.0262
UCCUGUGCUACACAUCGUAUGUACCGAAUCGGGGAAAAAAAGGGGUUUUUGGGGAGGGGAAAGUAUUAUGUUACGCCGUUCGGAUCUGCA,0.815
CUGUGCUACACAUCGUAUGUACCGAAUCGGGGUUUUUUUGGGGUUUUUUUGGGUUUUUUUGGAAAGUAUUAUGUUACGCCGUUCGGAUCU,-0.152
UCCUGUGCUACACAUCGUAUGUACCGAAUCGGAAAAAAAGGUUUUUUUGGAAAAAAAGGAAAGUAUUAUGUUACGCCGUUCGGAUCUGCA,-0.279
UGGCCCUGGUGGCAUGCGGGGAGGAAGAGGUGGCCUCAUGGAUCGUGGUGGUCCCGGGGGAAUGUUCAGAGGUGGCCGUGGUGGAGACAG,0.947
UUGUGUUCGUGAAUUGUAACUCCAGAAGCAAUGCCUGUACAAGCUCCACAAUGGACGGAUUUCCUCUCCUGCCCAAUUUGCACUCAGACU,0.0326

# Study 3
# Target: RNA binding protein fox-1 homolog 2, RRM domain, GST-SBP tag (RBFOX2, Homo sapiens, UniProt O43251-10, residues 100-194)
# Method: RNA Bind-n-Seq
# Form: RNA
# Matrix: in vitro
# Tested at: 365 nM
# Setting: natural RNA segment, single round, ends assumed
# Baseline: no-protein control
# Direction: higher = stronger binding
# All sequences stand within: GGGAGUUCUACAGUCCGACGAUC … UGGAAUUCUCGGGUGCCAA
# Construct (chain): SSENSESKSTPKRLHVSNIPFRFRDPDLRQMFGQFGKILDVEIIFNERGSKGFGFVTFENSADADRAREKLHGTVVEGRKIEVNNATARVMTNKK
Strand,RBNS enrichment (R)
GUCUCUUGUUUUAUUUCUCUCUAAACUUGAAAACAGUAAAUCUGCAGAUACUGUGAGGCACAGAUUAUAUUGUCAAGCUACUGUUGCUAUGGUUAUAGACACCCACUUCA,0.447
UUUUUGUUUUUAAAUGAAGACCUCUGAAAAGCACAGGGCCUCUGCUCCUUCUGGCUCUGAUGUCCUGUGACUGUAGUGUCACCACCUCCCCUGGGAGUCAGACCAGGGAC,0.241
GAAGAGUUUUGAUUCUGUCCUUUUUUACUUGACAGUUUUACUAUGACACUAGACUCAGUAGAUUUUUAGGGAAAAAUAUGAUUAAUAGUAUCAUGGUGAACCAUUUAUUU,0.581
ACAAAAUCUCCAUUUCCUUGUGCCUGGCACUGUCUCGAGCCUAAGCUAUUUUAAAGAUGUUUUAAACAGUGGAAGAAUUAAGUCCACCAAAAGUCUUCCAUGAAAUGUAG,0.532
AGCAUGAUGAAUUUUGCAUGGGUGGCCAGCCAGCUAGCCCAUAACUGAUAGAUGCAUUAGAAGUCAGCCAGCGCAUAGGUGCUCCCUCUAUAUUAUGGAGAAAGCAAAAC,1.26
AUGGGGAGGGAAGAGGAGGAGAGGGGAGGGGACCUGCCCCCUCCUCAGGCAUCUGGGAGGGCCCUGCCCCCAUGGGCUUUACCCUUCCCUGCGGGCUCUCUCCCCGACAC,0.233
AAUCAGGGUUUUACCAGGGGCUCAGAGAUAAAAAGAAAACCUAUUCCUAUCUUAGCAUUUUGGUCUCAUUGGUUUAUAGACUCUGAUAAUAUCCCUAUCCAUGGAUCAUU,1.19
UUAUGUGUUCAUUGAAUUUGACUGACAUAGUUAAAAACUUAAGGUUUAUUUUAGACUUUCAAGGAAACAAAAGACUUUAGAGUCCUCUCUCUGUAAUUCUGCCCCACUCA,0.54

# Study 4
# Target: Serine/threonine-protein kinase Nek9 (NEK9, Homo sapiens, UniProt Q8TD19)
# Read-out: enzyme activity
# Mode: inhibitor
# Tested at: 0.5 µM
# Baseline: control
SMILES,remaining activity [%]
O=C1NC(=O)c2c1c1c3ccccc3[nH]c1n1cncc21,77.4
NC(=O)c1ccc(-c2nc(-c3ccc4c(c3)OCCO4)c(-c3ccccn3)[nH]2)cc1,94.7
COc1ccc(COc2ccc(Cc3cnc(N)nc3N)cc2OC)cc1,93.3
COc1cc2c(N3CCN(C(=O)Nc4ccc(OC(C)C)cc4)CC3)ncnc2cc1OCCCN1CCCCC1,97.2
CCN(CC)CCCCN1c2ccccc2Oc2ccc(Cl)cc21,98.8

# Excerpt of the above (study 2):
Strand,log2 enrichment
UCCUGUGCUACACAUCGUAUGUACCGAAUCGGAAAAAAAGGUUUUUUUGGAAAAAAAGGAAAGUAUUAUGUUACGCCGUUCGGAUCUGCA,-0.279
UGGCCCUGGUGGCAUGCGGGGAGGAAGAGGUGGCCUCAUGGAUCGUGGUGGUCCCGGGGGAAUGUUCAGAGGUGGCCGUGGUGGAGACAG,0.947
UUGUGUUCGUGAAUUGUAACUCCAGAAGCAAUGCCUGUACAAGCUCCACAAUGGACGGAUUUCCUCUCCUGCCCAAUUUGCACUCAGACU,0.0326
